Experimental data gathered from unrelated publications.
Protocols differ between the studies behind these lines. Several values in a cell are separate wells, animals, samples, runs or records.

| Structure (SMILES) | cell line | assay | system | setting | how to read | endpoint | value |
| --- | --- | --- | --- | --- | --- | --- | --- |
| CN1CCCNC(=O)c2cccc(c2)C(=O)NCCCN(C)CCCNc2cccc3c2C(=O)c2cccc(c2C3=O)NCCC1 | SAS | RNA-Seq, measured: FEZ2 mRNA |  | 1 µM, 6 h | baseline: untreated cells | log2 fold change | -1.08 |
| CCN(C(=O)c1cc(F)ccc1Oc1nncnc1N1CCC2(C1)CN([C@H](CCCN(C)CCOC)C(C)C)C2)C(C)C | A673 |  | muscle | 72 h |  | GI50 | > 10 µM |
| Cc1ncsc1-c1ccc(C(C)NC(=O)C2CC(O)CN2C(=O)C(NC(=O)CCCCCCCCCCN2CCCC(Nc3ncc(Cl)c(Nc4ccccc4S(=O)(=O)C(C)C)n3)C2)C(C)(C)C)cc1 (centres unmarked) | 22Rv1 | RNA-seq, measured: PAX1 mRNA |  | concentration not given | baseline: DMSO | log2 fold change | -1.81 |
| CC(C)Cc1ccc(C(C)C(=O)[Se]CC(=O)Nc2cccc(C(F)(F)F)c2)cc1 (centres unmarked) | NCI60 colon subpanel | NCI60 five-dose screen |  |  |  | mean TGI | 11.6 µM |
| CCN(CC)CC(=O)Nc1cccc(-n2cc(-c3ccc4ccc(-c5cn(-c6cccc(NC(=O)CN(CC)CC)c6)nn5)cc4c3)nn2)c1 | RCC4 | PCR angiogenesis array, measured: MMP14 |  | 5 x IC50, 2 h, normoxia | baseline: untreated | fold regulation | 1.06 |
| CCN(CC)CCNC(=S)Nc1ccc2nc(N3CCN(CC)CC3)cc(C)c2c1 | U2OS HDR-GFP reporter | homology-directed repair, flow cytometry |  | 30 µM |  | GFP-positive cells | 5.18% |
| COc1ccccc1-c1ccncc1C(=O)Nc1nnc(OCc2ccc(Cl)cc2)s1 | DLD-1 parental |  |  | 4 µM, mean of replicates |  | colony count | 79.5 and 81.5 and 69.5 |
| CNS(=O)(=O)Nc1nccc(Cc2c(C)c3ccc(Oc4ncccc4F)cc3oc2=O)c1F | SH-4 | cell viability |  | 7 days |  | IC50 | > 1 µM |
| CC(C)c1ccc(N(C)c2ccc3c(c2)OCC[C@H]3CNc2cnccc2C(=O)O)cc1 | SNU761 | cell viability, CellTiter-Glo | liver | 7 days |  | IC50 | 0.0397 µM |
| CO[C@@H]1[C@@H](OC(N)=O)[C@@H](O)[C@H](Oc2ccc3c(O)c(NC(=O)c4ccc(O)c(CC=C(C)C)c4)c(=O)oc3c2C)OC1(C)C | DLD-1 parental |  |  | 250 µM | baseline: untreated | colony survival | 0.12% |
| Cn1ncc2cc(-c3cncc(Cl)c3N3CCC4(CCNC4=O)CC3)ccc21 | LS174T | gene expression, microarray, measured: MYL9 mRNA |  | concentration not given, 4 h | baseline: untreated cells | log2 fold change | 2.81 |

For quick reference, copied from above:
| Structure (SMILES) | cell line | assay | system | setting | how to read | endpoint | value |
| --- | --- | --- | --- | --- | --- | --- | --- |
| CC(C)Cc1ccc(C(C)C(=O)[Se]CC(=O)Nc2cccc(C(F)(F)F)c2)cc1 (centres unmarked) | NCI60 colon subpanel | NCI60 five-dose screen |  |  |  | mean TGI | 11.6 µM |
